# Measurements collected from several papers.
# Protocols differ between the studies behind these lines.
SMILES,test system,setting,half-life [h]
OC1(C(F)(F)F)CCN(c2nc(Nc3ccnc(C(F)(F)F)c3)nc(-c3cccc(C(F)(F)F)n3)n2)C1 (centres unmarked),"Sprague-Dawley rat, plasma","oral, 20 mg/kg",12.1
COC1C(c2ccc(Cl)c(Cc3ccc(OC4CCOC4)cc3)c2)OC(CO)C(O)C1O (centres unmarked),"Sprague-Dawley rat, plasma","oral, 5 mg/kg",1.87
CCCN(C)c1cc(C(F)(F)F)nc(SCCC(=O)NCc2ccco2)n1,"male Wistar rat, plasma","intraperitoneal, 25 mg/kg, single dose",1.08
Cc1[nH]nc2c1N=C(c1ccccc1Cl)c1cnc(N3CCOCC3)cc1N2,"male Sprague-Dawley rat, plasma","intravenous, 1 mg/kg",3.6
CN1CCC[C@@H]1C(=O)N[C@@H](Cc1ccc(-c2ccccc2)cc1)B(O)O,"male Sprague-Dawley rat, plasma","intravenous, 1 mg/kg",4.4
O=C(O)c1c(O)cc(O[C@@H]2O[C@H](CO)[C@@H](O)[C@H](O)[C@H]2O)cc1/C=C/c1ccccc1,"male Sprague-Dawley rat, plasma","oral, 5 mg/kg",0.63
Cc1cc2c(cc1O)C=C1C=CC(=O)C(C)(C)[C@H]1CC2,"male Sprague-Dawley rat, plasma","intravenous, 2 mg/kg",0.75
CC1(C)C(NC(=O)C(=NOC2(C(=O)O)CCC2)c2csc(N)n2)C(=O)N1OS(=O)(=O)O (centres unmarked),"rat, plasma","intravenous, 10 mg/kg, single dose",0.55
C=C(NC(=O)c1csc(-c2nc3c(cc2O)-c2nc(cs2)C(=O)NC(C(C)O)C(=O)NC(=C(C)OC)c2nc(cs2)C(=O)NC2c4nc(cs4)C(=O)NC(COC(=O)c4c5c6c(cccc6n4O)COC(=O)C(OC4CC(C)(O)C(N(C)C)C(C)O4)C2OC5)c2nc-3cs2)n1)C(N)=O (centres unmarked),"female Sprague-Dawley rat, plasma","intravenous, 2 mg/kg, single dose, infusion",1.98
OCC1OC(n2cnc3c(NCc4ccc(Br)s4)ncnc32)C(O)C1O (centres unmarked),"male Sprague-Dawley rat, blood","oral, 10 mg/kg",2.5 to 3.6
CC(=Nc1ccc(N)cc1)N(C)C,"male Sprague-Dawley rat, plasma","oral, 200 mg/kg",6.54
COCCN(C)CC(=O)NC(Cc1ccc(-c2ccccc2)cc1)B(O)O (centres unmarked),"rat, plasma","intravenous, 1 mg/kg",5.3
CCOP(=O)(CC(=O)Nc1ccc(S(=O)(=O)N(CC(N)=O)c2ccc(N(CC(N)=O)S(=O)(=O)c3ccc(OC)cc3)c3ccccc23)cc1)OCC,"male Wistar rat, plasma","intravenous, 28 mg/kg, single dose",2.75
C/C(N)=N/C(=N\S(=O)(=O)c1ccc(C(F)(F)F)cc1)N1C[C@H](c2ccccc2)C(c2ccc(Cl)cc2)=N1,"male Sprague-Dawley rat, plasma","oral, 3 mg/kg",4.4
CCC(CC)n1c(Cc2ccco2)nc2cc(C(=O)N[C@@H](CC(=O)O)c3ccccc3)ccc21,"male Sprague-Dawley rat, plasma","intravenous, 1 mg/kg",2.31
Cc1cccc(C)c1CNc1cc(C(=O)N2CCC2)cn2c(C)c(C)nc12,"male Sprague-Dawley rat, plasma","oral, 10 mg/kg",1.9
CCC(CC)n1c(Cc2cccs2)nc2cc(C(=O)N[C@@H](CC(=O)O)c3ccccc3)ccc21,"male Sprague-Dawley rat, plasma","intraperitoneal, 10 mg/kg",2.47
COC(=O)C1=CNC=C(C(=O)OC)C1c1ccc(F)c(C(F)(F)F)c1,"male Sprague-Dawley rat, plasma","intravenous, 5 mg/kg",1.15
CNC(=O)C1CCCN(C(=O)C2CC3CCC2N3C(=O)[C@@H]2C[C@@H](O)CN2C(=O)NCc2cccc(Cl)c2F)C1 (mixture of isomers),"rat, plasma","oral, 8 mg/kg",7.31
O=c1c(-c2ccc(Cl)c(CN3CCOCC3)c2)coc2cc(O)ccc12,"male Sprague-Dawley rat, plasma","intravenous, 2 mg/kg",7.14

# Some of these lines once more:
SMILES,test system,setting,half-life [h]
Cc1cc2c(cc1O)C=C1C=CC(=O)C(C)(C)[C@H]1CC2,"male Sprague-Dawley rat, plasma","intravenous, 2 mg/kg",0.75
CC1(C)C(NC(=O)C(=NOC2(C(=O)O)CCC2)c2csc(N)n2)C(=O)N1OS(=O)(=O)O (centres unmarked),"rat, plasma","intravenous, 10 mg/kg, single dose",0.55
